Measured values pooled from the literature.
Each line is one published result; not all experiments were run side by side. Several values in a cell are separate wells, animals, samples, runs or records. ± marks the error that the study gave.

COCC(=O)N1CCC[C@H](C(=O)NCc2nc(-c3ccccc3)cs2)C1
Cmax (Sprague-Dawley rat, male, plasma; oral, 3 mg/kg): 29000 nM

C1=C/COCc2cc(ccc2OCCN2CCCC2)Nc2nccc(n2)-c2cccc(c2)COC/1
Cmax (LC-MS/MS; Sprague-Dawley rat, male, plasma; oral, 36 mg/kg, with: isavuconazole 20 mg/kg oral): 1320 ± 994 ng/mL

Cc1ccc(S(=O)(=O)n2cc3c4c2C(=O)C(NCc2ccc(Cl)cc2)=CC4=NCC3)cc1
Cmax (Sprague-Dawley rat, plasma; intravenous, 5 mg/kg): 1340 ng/mL and 1270 ng/mL and 1070 ng/mL

CN1CCC[C@H](CN2c3ccccc3Sc3ccccc32)C1.Cl
Cmax (female Wistar rat, heart; oral, 16 mg/kg): 2800 ng/g

O=C(O)CCSC[C@H]1O[C@@H]2O[C@H]3[C@H](O)[C@@H](O)[C@@H](O[C@H]4[C@H](O)[C@@H](O)[C@@H](O[C@H]5[C@H](O)[C@@H](O)[C@@H](O[C@H]6[C@H](O)[C@@H](O)[C@@H](O[C@H]7[C@H](O)[C@@H](O)[C@@H](O[C@H]8[C@H](O)[C@@H](O)[C@@H](O[C@H]9[C@H](O)[C@@H](O)[C@@H](O[C@H]1[C@H](O)[C@H]2O)O[C@@H]9CSCCC(=O)O)O[C@@H]8CSCCC(=O)O)O[C@@H]7CSCCC(=O)O)O[C@@H]6CSCCC(=O)O)O[C@@H]5CSCCC(=O)O)O[C@@H]4CSCCC(=O)O)O[C@@H]3CSCCC(=O)O
Cmax (Sprague Dawley rat, plasma; ODD, 5 mg/kg, with: rocuronium bromide IV): 2030 ng/mL

C=CC(=O)N1CCC([C@@H]2CCNc3c(C(N)=O)c(-c4ccc(Oc5ccccc5)cc4)nn32)CC1
Cmax (Sprague-Dawley rats, plasma; oral, 16 mg/kg, with: posaconazole 40 mg/kg): 597 ± 195 ng/mL

Cc1cc(-c2ccc3cc[nH]c(=O)c3c2)ccc1O[C@H]1O[C@H](CO)[C@@H](O)[C@H](O)[C@@H]1O
Cmax (male Sprague-Dawley rat, plasma; intravenous, 3 mg/kg, group mean): 337 ng/mL

CCCCCCCCc1ccc(CCC(N)(CO)CO)cc1
Cmax (male Sprague-Dawley rat, heart; oral, 1 mg/kg, single dose): 416 ng/g

CC(=O)CC(c1ccccc1)c1c(O)c2ccccc2oc1=O (stereo not shown)
Cmax (Sprague-Dawley rat, male, plasma; oral, 0.2 mg/kg, with: miconazole 30 mg/kg oral, 30 min before): 321 ± 116 ng/mL

Cc1cccc(CNC(=O)c2cn(CCNC(=O)c3ccccc3Sc3c([N+](=O)[O-])ncn3C)c3cc4c(cc3c2=O)OC(F)(F)O4)n1
Cmax (Sprague-Dawley rat, male, plasma; intramuscular, 3 mg/kg of parent drug): 47.8 ± 8.6 ng/mL

O=C1c2ccccc2C(=O)N1CCCN1CCN(C(c2ccc(F)cc2)c2ccc(F)cc2)CC1
Cmax (male Sprague-Dawley rat, whole blood; oral, 10 mg/kg): 24.2 ± 19.1 ng/mL

CC(C)c1nc(N(C)S(C)(=O)=O)nc(-c2ccc(F)cc2)c1/C=C/[C@@H](O)C[C@@H](O)CC(=O)O
Cmax (Wistar albino rat, both sexes, plasma; oral, 20 mg/kg): 697 ng/mL and 1110 ng/mL and 348 ng/mL and 1150 ng/mL and 1560 ng/mL

C=CC(=O)N1CCC(Oc2cc3c(Nc4ccc(Cl)c(Cl)c4F)ncnc3cc2OC)CC1
Cmax (Sprague-Dawley rat, male, plasma; oral, 2 mg/kg, 1 weeks pretreatment, with: Schisandrin A 20 mg/kg daily pretreatment): 1410 ± 379 ng/mL

CCCCCCCOc1ccc(CCC(N)(CO)CO)cc1C(F)(F)F.Cl
Cmax (male Sprague-Dawley rat, heart; oral, 1 mg/kg, single dose): 174 ng/g

CCOCc1nc(O)c(-c2nnc(Cc3ccc(Cl)cn3)o2)c(O)c1-c1c(OC)cccc1OC
Cmax (rat, post surgery, plasma; oral, 0.06 mg/kg once daily, day 6 post surgery): 65 nM

N=C(N)NCCNC(=O)C1(Nc2ccccc2)CCN(Cc2ccccc2)CC1
Cmax (male Sprague-Dawley rats, plasma; oral, 50 mg/kg): 424 ± 52.3 ng/mL

O=C(O)C1=CO[C@@H](O[C@@H]2O[C@H](CO)[C@@H](O)[C@H](O)[C@H]2O)[C@@H]2C(CO)=CC[C@H]12
Cmax (rat, plasma; oral, 500 mg/kg Eu extract, dosed as Eu extract): 912 ± 635 ng/mL

CCn1cc(Cl)c2c(Cc3ccc(C(F)(F)F)nc3)n(C)nc2c1=O
Cmax (Sprague-Dawley rat, male; oral, 3 mg/kg, suspension): 2270 nM

C=CC(=O)N1CCC[C@@H](n2nc(-c3ccc(Oc4ccccc4)cc3)c3c(N)ncnc32)C1
Cmax (Wistar rat, plasma; oral, dose not given, suspension): 453 ± 13.6 ng/mL

COC(=O)C1=CO[C@@H](O[C@@H]2O[C@H](CO)[C@@H](O)[C@H](O)[C@H]2O)[C@@H]2C(CO)=CC[C@H]12
Cmax (rat, plasma; oral, 500 mg/kg Eu + 217 mg/kg Pc extract, dosed as combined Eu and Pc extracts): 32.8 ± 42.7 ng/mL

Cn1c(C(F)(F)F)cc(=O)n(-c2cc(Oc3cccnc3OCC(=O)O)c(Cl)cc2F)c1=O
Cmax (Crl:CD(SD) rats, female, plasma; oral diet, 300 ppm in diet, day 1, 90-day toxicity study): 349 ng/mL

CNC(=O)c1cccc(-c2ccc([C@@H](O)[C@H]3O[C@H](CO)[C@@H](O)[C@H](O)[C@@H]3O)c(C)c2)c1
Cmax (male Sprague-Dawley rat, plasma; oral, 10 mg/kg, group mean): 18.6 ng/mL

N#CC(Cc1ccc(O)cc1)c1ccc(O)cc1 (stereo not shown)
Cmax (item: aglycone; rat, Long-Evans, female, serum; subcutaneous, 2 mg/kg single dose): 1000 ± 440 nM

CC(=O)CC(c1ccccc1)c1c(O)c2ccccc2oc1=O (stereo not shown)
Cmax (Sprague-Dawley rat, male, plasma; oral, 0.3 mg/kg/day, 1 week, without PNS): 1430 ± 78.5 ng/mL

Oc1ccc(/C=C/c2cc(O)cc(O)c2)cc1
Cmax (male Wistar rats, plasma; oral, 10 mg/kg): 126 ± 7.5 ng/mL

O=c1oc2c(O)c(O)cc3c(=O)oc4c(O)c(O)cc1c4c23
Cmax (rat, plasma; oral, 1000 mg/kg extract, possible metabolite or extract component): 300 ± 60 ng/mL

Cc1cccc(CNC(=O)c2cn(CCNC(=O)c3ccccc3S)c3cc4c(cc3c2=O)OC(F)(F)O4)n1
Cmax (Sprague-Dawley rat, male, whole blood; intramuscular, 10 mg/kg of parent drug): 356 ± 167 ng/mL

CN(C)C(=O)c1cc2cnc(Nc3ccc(N4CCNCC4)cn3)nc2n1C1CCCC1
Cmax (striatal microdialysis, recovery corrected; Sprague-Dawley rat male, brain extracellular fluid; intraperitoneal, 100 mg/kg): 197 ng/mL

C#C[C@]1(CO)O[C@@H](n2cnc3c(N)nc(F)nc32)C[C@@H]1O
Cmax (rat, plasma; 100 mg/kg/day, 7 days): 28300 nM

Cc1nc(-c2cnc(NC(C)C)n(C)c2=O)ccc1Oc1ccnc(-c2cnn(C)c2)c1
Cmax (Sprague-Dawley rat, male, plasma; intravenous, 1 mg/kg, crossover study): 2910 ng/mL

O=C(O)c1cc(O)c(O)c(O)c1
Cmax (rat, plasma; oral, 500 mg/kg extract, extract): 1180 ± 120 ng/mL

CSc1ccccc1C(=O)NCCn1cc(C(=O)NCc2cccc(C)n2)c(=O)c2cc3c(cc21)OC(F)(F)O3
Cmax (Sprague-Dawley rat, male, whole blood; intramuscular, 3 mg/kg of parent drug): 3.57 ± 1.12 ng/mL

CCONC(=O)N1CCC[C@H](C(=O)NCc2nc(-c3ccc(C#N)cc3)cs2)C1
Cmax (Sprague-Dawley rat, male, plasma; oral, 3 mg/kg): 300 nM

CCc1cc(C(=O)NC)c2nccc(N3CCc4c(cc(Cn5ccnc5)cc4-c4cn(C)nc4C(F)(F)F)C3=O)c2c1
Cmax (Sprague Dawley rat, male, plasma; oral, 50 mg/kg once daily, 7 days, toxicokinetic satellite group): 4940 ng/mL

Excerpt of the above:
O=C1c2ccccc2C(=O)N1CCCN1CCN(C(c2ccc(F)cc2)c2ccc(F)cc2)CC1
Cmax (male Sprague-Dawley rat, whole blood; oral, 10 mg/kg): 24.2 ± 19.1 ng/mL

O=C(O)CCSC[C@H]1O[C@@H]2O[C@H]3[C@H](O)[C@@H](O)[C@@H](O[C@H]4[C@H](O)[C@@H](O)[C@@H](O[C@H]5[C@H](O)[C@@H](O)[C@@H](O[C@H]6[C@H](O)[C@@H](O)[C@@H](O[C@H]7[C@H](O)[C@@H](O)[C@@H](O[C@H]8[C@H](O)[C@@H](O)[C@@H](O[C@H]9[C@H](O)[C@@H](O)[C@@H](O[C@H]1[C@H](O)[C@H]2O)O[C@@H]9CSCCC(=O)O)O[C@@H]8CSCCC(=O)O)O[C@@H]7CSCCC(=O)O)O[C@@H]6CSCCC(=O)O)O[C@@H]5CSCCC(=O)O)O[C@@H]4CSCCC(=O)O)O[C@@H]3CSCCC(=O)O
Cmax (Sprague Dawley rat, plasma; ODD, 5 mg/kg, with: rocuronium bromide IV): 2030 ng/mL

C=CC(=O)N1CCC([C@@H]2CCNc3c(C(N)=O)c(-c4ccc(Oc5ccccc5)cc4)nn32)CC1
Cmax (Sprague-Dawley rats, plasma; oral, 16 mg/kg, with: posaconazole 40 mg/kg): 597 ± 195 ng/mL

CC(C)c1nc(N(C)S(C)(=O)=O)nc(-c2ccc(F)cc2)c1/C=C/[C@@H](O)C[C@@H](O)CC(=O)O
Cmax (Wistar albino rat, both sexes, plasma; oral, 20 mg/kg): 697 ng/mL and 1110 ng/mL and 348 ng/mL and 1150 ng/mL and 1560 ng/mL
